Measured values from different studies.
Lines come from different studies, so protocols differ. ± gives the spread as reported.

| Compound | target or system | test | system | conditions | how to read | endpoint | result |
| --- | --- | --- | --- | --- | --- | --- | --- |
| Nc1ncc(-c2cc(-c3cnn(CC(F)(F)F)c3)ncc2F)nc1C(=O)NC1CNCC(F)C1 (stereo not shown) | MARK2 | KINOMEscan | – | 1 µM | baseline: DMSO control | remaining binding | 97% |
| CNS(=O)(=O)Nc1nccc(Cc2c(C)c3ccc(Oc4ncccc4F)cc3oc2=O)c1F | MKN-74 | cell viability | – | 7 days | – | IC50 | > 1 µM |
| COC1OC(C)C(OC2OC(C)C(O)C(OC3OC(C)C(OC4OC(C)C(O)C(OC5OC(C)C(OC6OC(C)C(O)C(OC7OC(C)C(O)C(OS(=O)(=O)O)C7OS(=O)(=O)O)C6OS(=O)(=O)O)C(OS(=O)(=O)O)C5OS(=O)(=O)O)C4OS(=O)(=O)O)C(OS(=O)(=O)O)C3OS(=O)(=O)O)C2OS(=O)(=O)O)C(OS(=O)(=O)O)C1OS(=O)(=O)O (stereo not shown) | – | – | human plasma | 128 µg/mL | – | prothrombin time | 14.7 ± 0.5 s |
| C=C(NC(=O)c1csc(-c2nc3c(cc2O)-c2nc(cs2)C(=O)NC(C(C)O)C(=O)NC(=C(C)OC)c2nc(cs2)C(=O)NC2c4nc(cs4)C(=O)NC(COC(=O)c4c5c6c(cccc6n4O)COC(=O)C(OC4CC(C)(O)C(N(C)C)C(C)O4)C2OC5)c2nc-3cs2)n1)C(N)=O (stereo not shown) | Streptococcus pneumoniae | – | -25, immunocompromised mice, lung infection | 4 mg/kg/day, twice daily, 24 h post-dose | – | lung bacterial load | 6.61 log CFU/g |
| C=CC(=O)N1[C@@H](c2ccc3c(c2)OCO3)c2[nH]c3ccccc3c2C[C@H]1C(=O)N1CCN(C)CC1 | CCNE1 WT-3xFLAG:CDK2 complex | co-IP TMT proteomics, refers to: CDKN1A | HEK-293T | 20 µM, 6 h | baseline: DMSO | log2 fold change | 0.2 |
| Oc1c(/N=N/c2ccccn2)ccc2ccccc12 | Mus musculus | gene silencing, high-content imaging | LDR reporter GFP cells | retest run 2 | – | AC50 | 31.6 µM |
| C[n+]1ccc(/C=N/NC(=O)c2cccc(C(=O)N/N=C/c3cc[n+](C)cc3)c2)cc1 | hp2 hairpin duplex DNA | FRET melting | – | 1 µM, with: ds26 10 µM | – | ΔTm | 0 ± 0.1 °C |
| C=CC(=O)Nc1cccc(Cn2ncc3cnc(Nc4cnn(CCOC)c4)nc32)c1 | CSNK1A1L human | binding, KINOMEscan | – | 100 nM | lower = stronger binding | percent of control | 100% |
| Cc1ncsc1-c1ccc(C(C)NC(=O)C2CC(O)CN2C(=O)C(NC(=O)CCCCCCCCCCN2CCCC(Nc3ncc(Cl)c(Nc4ccccc4S(=O)(=O)C(C)C)n3)C2)C(C)(C)C)cc1 (stereo not shown) | 22Rv1 | RNA-seq, refers to: RGS16 mRNA | – | concentration not given | baseline: DMSO | log2 fold change | -1.99 |
| N=C(S)N/N=C/c1ncc(C(F)(F)F)cc1Cl | Mus musculus | gene silencing, high-content imaging | LDR reporter GFP cells | retest run 2 | – | AC50 | 15.8 µM |
| O=C(c1cncc(-c2ccc3ncnc(Nc4ccc(OCc5cccc(F)c5)c(Cl)c4)c3c2)c1)N1CCOCC1 | Leishmania major | parasite growth, resazurin | – | promastigote | – | EC50 | > 15 µM |
| COC1OC(C)C(OC2OC(C)C(O)C(OC3OC(C)C(OC4OC(C)C(O)C(OC5OC(C)C(OC6OC(C)C(O)C(OC7OC(C)C(OC8OC(C)C(O)C(OC9OC(C)C(OC%10OC(C)C(O)C(OC%11OC(C)C(O)C(OS(=O)(=O)O)C%11OS(=O)(=O)O)C%10OS(=O)(=O)O)C(OS(=O)(=O)O)C9OS(=O)(=O)O)C8OS(=O)(=O)O)C(OS(=O)(=O)O)C7OS(=O)(=O)O)C6OS(=O)(=O)O)C(OS(=O)(=O)O)C5OS(=O)(=O)O)C4OS(=O)(=O)O)C(OS(=O)(=O)O)C3OS(=O)(=O)O)C2OS(=O)(=O)O)C(OS(=O)(=O)O)C1OS(=O)(=O)O (stereo not shown) | – | – | human plasma | 128 µg/mL | – | prothrombin time | 15.1 ± 0.2 s |
| C[n+]1ccc(/C=N/NC(=O)N/N=C/c2cc[n+](C)cc2)cc1 | hp2 hairpin duplex DNA | FRET melting | – | 1 µM | – | ΔTm | 0.2 ± 0.1 °C |
| CC(C)(C)c1cc(-c2ccc3cccnc3n2)nc(-c2ccc3cccnc3n2)c1.[Cl-].[Cl-].[Ru+2].c1ccc2cc3nc4c5cccnc5c5ncccc5c4nc3cc2c1 | A-375 | photocytotoxicity, resazurin | – | visible light 400-700 nm, 20 mW, 100 J/cm2 | – | EC50 | 1.94 µM |
| COC1OC(C)C(OS(=O)(=O)O)C(OC2OC(C)C(OS(=O)(=O)O)C(OC3OC(C)C(OS(=O)(=O)O)C(OC4OC(C)C(OS(=O)(=O)O)C(OC5OC(C)C(OS(=O)(=O)O)C(OC6OC(C)C(OS(=O)(=O)O)C(OC7OC(C)C(OS(=O)(=O)O)C(OC8OC(C)C(OS(=O)(=O)O)C(OC9OC(C)C(OS(=O)(=O)O)C(OS(=O)(=O)O)C9O)C8O)C7O)C6O)C5O)C4O)C3O)C2O)C1O (stereo not shown) | – | – | human plasma | 128 µg/mL | baseline: control | prothrombin time prolongation | 1.01 fold |
| CCc1nnc(NC(=O)c2cccc(C(=O)Nc3nnc(CC)s3)n2)s1 | Mus musculus | gene silencing, high-content imaging | LDR reporter GFP cells | 30 h, retest run 2 | – | Emax | 26% |

| Compound | target or system | test | system | conditions | how to read | endpoint | result |
| --- | --- | --- | --- | --- | --- | --- | --- |
| COC1OC(C)C(OC2OC(C)C(O)C(OC3OC(C)C(OC4OC(C)C(O)C(OC5OC(C)C(OC6OC(C)C(O)C(OS(=O)(=O)O)C6OS(=O)(=O)O)C(OS(=O)(=O)O)C5OS(=O)(=O)O)C4OS(=O)(=O)O)C(OS(=O)(=O)O)C3OS(=O)(=O)O)C2OS(=O)(=O)O)C(OS(=O)(=O)O)C1OS(=O)(=O)O (stereo not shown) | – | – | human plasma | 128 µg/mL | – | prothrombin time | 14.9 ± 0.5 s |
| COc1ccc2c(C)nc(Nc3nc(O)cc(-c4ccccc4)n3)nc2c1 | Mus musculus | gene silencing, high-content imaging | LDR reporter GFP cells | retest run 2 | – | AC50 | 3.98 µM |
| COC1CN([C@H]2CC[C@H]([C@@]3(C)Oc4c(Cl)cc(C(=O)NCc5c(SC)cc(C)[nH]c5=O)c(C)c4O3)CC2)C1 | – | RNA-seq, refers to: FAM110B | human, whole blood | dose not given, 24 h | baseline: pretreatment baseline | log2 fold change | 3.28 |
| O=C(N/N=C/c1cc[n+](CC2CC2)c2ccccc12)c1ccc2ccc(C(=O)N/N=C/c3cc[n+](CC4CC4)c4ccccc34)nc2n1 | MYC parallel G4 DNA | FRET melting | – | 1 µM, DNA 0.2 µM, with: duplex DNA competitor 10 µM | – | ΔTm | 14.8 ± 0.1 °C |
| CCC(=O)N1CCN(c2ccc(NC(=O)c3ccc([N+](=O)[O-])o3)cc2Cl)CC1 | Mus musculus | gene silencing, high-content imaging | LDR reporter GFP cells | retest, mean of two runs | – | EC50 | 1.26 µM |
| C[n+]1cc(/C=N/NC(=O)c2ccc3ccc(C(=O)N/N=C/c4cc5ccccc5[n+](C)c4)nc3n2)cc2ccccc21 | MYC parallel G4 DNA | FRET melting | – | 1 µM, DNA 0.2 µM, with: duplex DNA competitor 10 µM | – | ΔTm | 6.7 ± 0.1 °C |
| COCC/N=C(\S)N/N=C(\C)c1ccccc1O | Mus musculus | gene silencing, high-content imaging | LDR reporter GFP cells | retest, mean of two runs | – | EC50 | 10 µM |
| C[n+]1cccc2cc(/C=N/NC(=O)c3ccc4ccc(C(=O)N/N=C/c5ccc6c(ccc[n+]6C)c5)nc4n3)ccc21 | MYC parallel G4 DNA | FRET melting | – | 1 µM, DNA 0.2 µM | – | ΔTm | 10.4 ± 0.1 °C |
| CN1CCCNC(=O)c2cccc(c2)C(=O)NCCCN(C)CCCNc2cccc3c2C(=O)c2cccc(c2C3=O)NCCC1 | SAS | RNA-seq, refers to: KMT2E-AS1 mRNA | – | 1 µM, 6 h | baseline: untreated cells | log2 fold change | -1.08 |
| C[n+]1ccc(/C=N/NC(=O)c2ccc3ccc(C(=O)N/N=C/c4cc[n+](C)c5ccccc45)nc3n2)c2ccccc21 | hp2 hairpin duplex DNA | FRET melting | – | 1 µM, with: ds26 10 µM | – | ΔTm | 0.4 ± 0.3 °C |
| CCN(CC)CC(=O)Nc1cccc(-n2cc(-c3ccc4ccc(-c5cn(-c6cccc(NC(=O)CN(CC)CC)c6)nn5)cc4c3)nn2)c1 | RCC4 | PCR angiogenesis array, refers to: THBS2 | – | 5 x IC50, 4 h, normoxia | baseline: untreated | fold regulation | -1.42 fold |
| O=C(N/N=C/c1cc[n+](CC2CC2)c2ccccc12)c1cccc(C(=O)N/N=C/c2cc[n+](CC3CC3)c3ccccc23)c1 | MYC parallel G4 DNA | FRET melting | – | 1 µM, DNA 0.2 µM | – | ΔTm | 6.4 ± 0.1 °C |
| COc1nc(Nc2nc(O)c3ccccc3n2)nc2ccc(C)cc12 | Mus musculus | gene silencing, high-content imaging | LDR reporter GFP cells | confirmation, mean of two runs | – | EC50 | 7.94 µM |
| CC[n+]1cccc2cc(/C=N/NC(=O)c3ccc4ccc5ccc(C(=O)N/N=C/c6ccc7c(ccc[n+]7CC)c6)nc5c4n3)ccc21 | hp2 hairpin duplex DNA | FRET melting | – | 1 µM | – | ΔTm | 2.7 ± 1.4 °C |
| C(=N\Nc1nc(-c2ccccn2)nc2ccccc12)/c1ccccc1 | Mus musculus | gene silencing, high-content imaging | LDR reporter GFP cells | 30 h, confirmation, mean of two runs | – | Emax | 97% |

Some of these lines once more:
| Compound | target or system | test | system | conditions | how to read | endpoint | result |
| --- | --- | --- | --- | --- | --- | --- | --- |
| CCC(=O)N1CCN(c2ccc(NC(=O)c3ccc([N+](=O)[O-])o3)cc2Cl)CC1 | Mus musculus | gene silencing, high-content imaging | LDR reporter GFP cells | retest, mean of two runs | – | EC50 | 1.26 µM |
| C[n+]1cc(/C=N/NC(=O)c2ccc3ccc(C(=O)N/N=C/c4cc5ccccc5[n+](C)c4)nc3n2)cc2ccccc21 | MYC parallel G4 DNA | FRET melting | – | 1 µM, DNA 0.2 µM, with: duplex DNA competitor 10 µM | – | ΔTm | 6.7 ± 0.1 °C |
| COCC/N=C(\S)N/N=C(\C)c1ccccc1O | Mus musculus | gene silencing, high-content imaging | LDR reporter GFP cells | retest, mean of two runs | – | EC50 | 10 µM |
